Published values gathered from unrelated publications.
A part holds a random share of what one study measured.

Series 1
Target: Histone acetyltransferase KAT6A, both winged helices, GST fusion (KAT6A, Homo sapiens, UniProt Q92794, residues 1-181)
Technique: protein binding microarray
Molecule type: double-stranded DNA, one strand shown
Matrix: in vitro
Concentration: not given
Notes: 8-mer, flanks averaged, mean of 2 arrays, mostly near background
Baseline: not given
Direction: higher = stronger binding
Endpoint: E-score
Target sequence (chain): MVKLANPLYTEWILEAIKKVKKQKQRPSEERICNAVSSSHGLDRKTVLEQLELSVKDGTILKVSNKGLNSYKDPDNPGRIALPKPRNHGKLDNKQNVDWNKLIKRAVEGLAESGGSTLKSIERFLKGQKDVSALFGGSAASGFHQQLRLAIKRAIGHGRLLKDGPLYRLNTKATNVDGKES
Sequence = GGCCCACA; result = -0.149
Sequence = ATTTAAGA; result = -0.147
Sequence = CCATTAAA; result = -0.0802
Sequence = GAAAGGGC; result = -0.112
Sequence = ATGAGCTA; result = -0.0314
Sequence = AACGTTCT; result = 0.0468
Sequence = AATCTTAC; result = -0.0465
Sequence = ACGCCCCT; result = -0.0821
Sequence = CGAGTACA; result = -0.13
Sequence = CACTACTA; result = -0.163
Sequence = ACTGTAGG; result = -0.105
Sequence = CCATACTC; result = -0.109
Sequence = CAGTGCCC; result = -0.0498
Sequence = GCGGAGAA; result = 0.177
Sequence = AACAAACT; result = -0.129
Sequence = GTATGGTA; result = -0.0473
Sequence = ACCTGCAT; result = -0.104
Sequence = AAATCTAT; result = 0.0171
Sequence = ATTCTGTG; result = -0.0588
Sequence = GTTTAAAC; result = 0.191
Sequence = AGTTCTAG; result = -0.114
Sequence = CCTACTGA; result = -0.204
Sequence = AACCGCCC; result = 0.0874
Sequence = CCTACCAC; result = -0.028
Sequence = ACGAAAAC; result = -0.048

Series 2
Target: Interferon regulatory factor 3, full length, phosphomimetic (IRF3, Homo sapiens, UniProt Q14653, residues 1-427, S386D/S396D/S398D/S402D/T404D/S405D)
Technique: protein-binding microarray
Molecule type: double-stranded DNA, one strand shown
Matrix: in vitro
Concentration: 2540 nM top
Notes: 60-bp whole probe
With: salmon DNA 0.4 mg/ml
Baseline: random background probes
Direction: higher = stronger binding
Endpoint: fitted relative affinity
Shared flanks, not repeated: GCCTAGCAC … GTCTTGATTCGCTTGACGCTGCTG
Construct (chain): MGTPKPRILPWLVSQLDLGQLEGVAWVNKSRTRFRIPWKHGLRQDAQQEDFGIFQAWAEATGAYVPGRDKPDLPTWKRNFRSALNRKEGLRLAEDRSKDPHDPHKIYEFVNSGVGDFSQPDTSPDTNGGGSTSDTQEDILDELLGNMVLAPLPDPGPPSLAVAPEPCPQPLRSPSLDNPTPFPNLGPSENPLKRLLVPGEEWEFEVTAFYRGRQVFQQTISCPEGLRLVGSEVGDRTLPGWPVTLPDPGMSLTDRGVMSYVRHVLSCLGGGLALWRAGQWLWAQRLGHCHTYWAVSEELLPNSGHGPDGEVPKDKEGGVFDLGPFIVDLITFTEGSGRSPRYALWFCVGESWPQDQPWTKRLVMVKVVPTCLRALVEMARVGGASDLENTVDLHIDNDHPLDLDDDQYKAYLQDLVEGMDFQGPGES
Sequence = TCAGTTTCCAAATTGTCACTGTGCTAG; result = 8.9 z-score
Sequence = GACGATTTCAGTCTTGAGACGTGCTAG; result = 2.47 z-score
Sequence = CTGACATGTAAATGTGACATGTGCTAG; result = 0.149 z-score
Sequence = TATAGCTGATACATATAGCCGTGCTAG; result = 0.07 z-score
Sequence = TTAAATATCAGTTTCGATTAGTGCTAG; result = 5.5 z-score
Sequence = TTAGAACTGGGCTATCGATTAGTGCTA; result = -0.745 z-score
Sequence = GACGGTATCCTTATCCTTACGTGCTAG; result = 5.19 z-score
Sequence = GTCGGACTGCTTTTCCTGACGTGCTAG; result = 0.524 z-score
Sequence = TACGATCTCAGACTGGAGACGTGCTAG; result = 0.306 z-score
Sequence = GACGGACTGCTTTTCCTGTCGTGCTAG; result = 0.507 z-score
Sequence = TTAGATCTCAGCATCGATTAGTGCTAG; result = -0.219 z-score
Sequence = GACGGTTTCGACAATGGGGACGTGCTA; result = 2.69 z-score
Sequence = TCAACTTTCTGAATGCTACTGTGCTAG; result = 2.31 z-score
Sequence = TCATTTCTCAGTTTATTACTGTGCTAG; result = 2.62 z-score
Sequence = TCAGGGCTCTCTTCTGCTACTGTGCTA; result = -0.541 z-score
Sequence = GACGTTTTCGGGACTGGAGACGTGCTA; result = 2.02 z-score
Sequence = TCATGTGTATATATAATACTGTGCTAG; result = 0.0696 z-score
Sequence = TCAAATTCCTGAAATCTCACTGTGCTA; result = -0.00842 z-score

Series 3
Target: RNA binding protein fox-1 homolog 2, RRM domain, GST-SBP tag (RBFOX2, Homo sapiens, UniProt O43251-10, residues 100-194)
Technique: RNA Bind-n-Seq
Molecule type: RNA
Matrix: in vitro
Concentration: 365 nM
Notes: natural RNA segment, single round, ends assumed
Baseline: no-protein control
Direction: higher = stronger binding
Endpoint: RBNS enrichment (R)
Shared flanks, not repeated: GGGAGUUCUACAGUCCGACGAUC … UGGAAUUCUCGGGUGCCAA
Target sequence (chain): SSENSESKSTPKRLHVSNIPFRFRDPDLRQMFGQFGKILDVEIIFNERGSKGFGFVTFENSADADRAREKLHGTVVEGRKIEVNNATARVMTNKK
Sequence = GCUGCAGGAUAGUACAGUUUUACCGCAGAGGGAAUCUGGAACAGUGGAAUCAUGUGUCUGCCCUGUGUAUUGCAGUUUGUAUUGCCACAAGCUAUAUUUAUACCAGUGUC; result = 0.72
Sequence = UGUUGGGUGCAAAGUUCCCUACUUCCUGUGACUUCAGCUCUGUUUUACAAUAAAAUCUUGAAAAUGCCUAUAUUGUUGACUAUGUCCUUGGCCUUGACAGGCUUUGGGUA; result = 0.42
Sequence = UACUCUAGCCUGGGCCAGAGAAGAUAAUGUUCUUUAAUGUUGUCCAGGAAACCCUGGCUUGCUUGCCGAGCCUAAUGAAAGGGAAAGUCAGCUUUCAGAGCCAGUGAAGG; result = 0.312
Sequence = UCCAAGUCCGUCUACUACAGAGUCUAUUAUACUAGUAGAGCUGCUGUUCCAGGGUCGGGAGUCUAGGGUUGAGCACAACAUGACGUUUAAUUUCCUUUGACUUUUGUGGC; result = 0.285
Sequence = UCUGAUGAAAUCUCUGAAAAAAAAUAAUAAUUUCACACCAUGGCUGCCCUAAAAGGAUCAUUUUAGUUUCUUUGAUUAACUUUCUCAGAACAGACCUCUCCAUUAUUCAU; result = 0.471
Sequence = UGAUAGUUUUGAAUGUUGCUUAAAUGUCUAUGAGGUUGCGAGUUUGUCAUUGUUACAUUCCAGUGUUUCUGCCUCUUGGCAUGCUUAAAGCACGGCUUACUUCAUCUGCU; result = 0.997
Sequence = GUUAUAUAAAAAAAUUGUAAAUGUUUAAUAUCUGACUGAAAUUAAACGAGCGAAGAUGAGCACCACCUCCCGUGUCUGCAGUUGUAUUUCCUGGUGCUUGCCCUGUGUUG; result = 1.79
Sequence = GACAUUGAGGCCCAGCUGCCAAGUGAAAGUUGCACCAUGUUUCAGAACUCUUGCCCUCCCUCUCAUUCCCAUCCUUCCUGGUACUGCAGUCAACCAAAGAUGGCAUGACU; result = 1.38
Sequence = CGUUUGAUUAUUUUGUCUGUCUCCUAUAUAGAUCUGUUUUGUCUAGUGCUAUGAAUGUAACUUAAAACUAUAAACUUGAAGUUUUUAUUCUAUAUGCCCCUUAAUAGACU; result = 0.559
Sequence = GAUUGUUUUGUGAUGCUUGCCCUGCCUCGGUAUUGCCAGUUUCUUGUGCAAUAAAGAAUCAGCAGCCAUGGGUGGUGUCAGUGUAGCUGUUUAUACACAUUCUGUUGCAG; result = 0.388
Sequence = UUAAUGCUUUCCCACCUGCUCCAAGAGAACUAGCCCUCAACCAGUGCUGCGGCCUGUUCAUAUGCUCUCAUACUUUUUCAAAUCAUGAUGAGAAUUUUUCUCCUAUAUAC; result = 0.701
Sequence = GUAUGGUACUGGGGAAGUUUAUUCAUGCUUGCAAUCUUGUUUGGAAAUAAAAUGGGUCCGUCUGGAAGCAUGCCUCUGGCCCUUCCCUUGCCUGCACUGUCUGGUUCCAA; result = 12.6

Series 4
Target: Ras GTPase-activating protein-binding protein 1, full length (G3BP1, Homo sapiens, UniProt Q13283)
Sequence of UniProt Q13283 (whole entry, looked up): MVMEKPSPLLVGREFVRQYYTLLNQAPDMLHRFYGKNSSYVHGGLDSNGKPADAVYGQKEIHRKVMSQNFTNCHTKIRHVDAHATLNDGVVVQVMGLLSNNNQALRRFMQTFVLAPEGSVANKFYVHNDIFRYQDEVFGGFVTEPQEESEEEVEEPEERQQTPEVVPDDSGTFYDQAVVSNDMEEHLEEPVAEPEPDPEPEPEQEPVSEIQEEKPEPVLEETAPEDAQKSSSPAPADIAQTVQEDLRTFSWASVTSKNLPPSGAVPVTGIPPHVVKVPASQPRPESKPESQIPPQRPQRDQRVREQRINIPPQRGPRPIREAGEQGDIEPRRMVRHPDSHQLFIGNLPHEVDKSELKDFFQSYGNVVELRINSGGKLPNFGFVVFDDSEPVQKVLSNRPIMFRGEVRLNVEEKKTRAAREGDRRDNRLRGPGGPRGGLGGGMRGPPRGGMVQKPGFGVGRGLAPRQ
Technique: RNA Bind-n-Seq
Molecule type: RNA
Matrix: in vitro
Concentration: 200 nM
Notes: whole 134-nt RNA, ends assumed
With: 150 mM LiCl
Baseline: input library
Direction: higher = stronger binding
Endpoint: log2 enrichment
Library: 7-deaza-guanosine replaces G
Shared flanks, not repeated: GGGAGUUCUACAGUCCGACGAUC … UGGAAUUCUCGGGUGUCAAGG
Sequence = ACCAUGCAGGUGGGCAUCUUUGGGAAGUGGGGCAAGGGGGGGAUAGGGAGGGGGGUAACACUUCGGGAACAGGUGGUCCCAGGUCGUUUC; result = 0.222
Sequence = CCUGUGCUACACAUCGUAUGUACCGAAUCGGGGAGGGGUUUUUUUGGGGAAAAAAAGGGGAAAGUAUUAUGUUACGCCGUUCGGAUCUGC; result = 0.482
Sequence = UGUGCUACACAUCGUAUGUACCGAAUCGGGGAAAAAAAGGGGUUUUUGGGGAAAAAAAGGGGAAAGUAUUAUGUUACGCCGUUCGGAUCU; result = 0.00838
Sequence = UCAAGUCCUGUGCUACACAUCGUAUGUACCGAAUCGGGGAGGGGAGGGGAGGGGAAAGUAUUAUGUUACGCCGUUCGGAUCUGCACUUCC; result = 0.453
Sequence = CUGUGCUACACAUCGUAUGUACCGAAUCAAACCCCCCCAAACCCCCCCAAAUUUUUUUAAAAAAGUAUUAUGUUACGCCGUUCGGAUCUG; result = -0.751
Sequence = GCAGGAAGUAAAAACAAAUGGAAAUGCUUCGGAUAGUGGCAGGGGUGGGGGUUGCUAAGGAAAGGGUGGGAUGGGAGUGGGUAAAGAGUU; result = -0.252
Sequence = AGUCCUGUGCUACACAUCGUAUGUACCGAAUCGGGUUUGGGAAAAAAAGGGUUUGGGAAAGUAUUAUGUUACGCCGUUCGGAUCUGCACU; result = -2.36
Sequence = UCAAGUCCUGUGCUACACAUCGUAUGUACCGAAUCGGUUUUUUUGGAGGUUUGGAAAGUAUUAUGUUACGCCGUUCGGAUCUGCACUUCC; result = -0.471
Sequence = UGGAAGGAACGAGCCAGGAAGAGGGACUGGAACCAUCUCAGAAGCCAUGCCCCUCAGGCUGGAACUUGCCCUGUCUCCUCGCAGAUGAGG; result = -1.16
Sequence = AGUCCUGUGCUACACAUCGUAUGUACCGAAUCGGGGAAAGGGGAAAGGGGAAAGGGGAAAGUAUUAUGUUACGCCGUUCGGAUCUGCACU; result = 0.293
Sequence = CACAGACAACACGCACCCACACAGACACAGAGGGAAGGGGUUGGGAUGGGGACAGGGUGCACAGCAGGGCGGGGUAGGACCCCAGCCUCU; result = -0.539

Series 5
Target: Sal-like protein 4, full length isoform A (SALL4, Homo sapiens, UniProt Q9UJQ4, residues 1-1053)
Sequence of UniProt Q9UJQ4 (whole entry, looked up): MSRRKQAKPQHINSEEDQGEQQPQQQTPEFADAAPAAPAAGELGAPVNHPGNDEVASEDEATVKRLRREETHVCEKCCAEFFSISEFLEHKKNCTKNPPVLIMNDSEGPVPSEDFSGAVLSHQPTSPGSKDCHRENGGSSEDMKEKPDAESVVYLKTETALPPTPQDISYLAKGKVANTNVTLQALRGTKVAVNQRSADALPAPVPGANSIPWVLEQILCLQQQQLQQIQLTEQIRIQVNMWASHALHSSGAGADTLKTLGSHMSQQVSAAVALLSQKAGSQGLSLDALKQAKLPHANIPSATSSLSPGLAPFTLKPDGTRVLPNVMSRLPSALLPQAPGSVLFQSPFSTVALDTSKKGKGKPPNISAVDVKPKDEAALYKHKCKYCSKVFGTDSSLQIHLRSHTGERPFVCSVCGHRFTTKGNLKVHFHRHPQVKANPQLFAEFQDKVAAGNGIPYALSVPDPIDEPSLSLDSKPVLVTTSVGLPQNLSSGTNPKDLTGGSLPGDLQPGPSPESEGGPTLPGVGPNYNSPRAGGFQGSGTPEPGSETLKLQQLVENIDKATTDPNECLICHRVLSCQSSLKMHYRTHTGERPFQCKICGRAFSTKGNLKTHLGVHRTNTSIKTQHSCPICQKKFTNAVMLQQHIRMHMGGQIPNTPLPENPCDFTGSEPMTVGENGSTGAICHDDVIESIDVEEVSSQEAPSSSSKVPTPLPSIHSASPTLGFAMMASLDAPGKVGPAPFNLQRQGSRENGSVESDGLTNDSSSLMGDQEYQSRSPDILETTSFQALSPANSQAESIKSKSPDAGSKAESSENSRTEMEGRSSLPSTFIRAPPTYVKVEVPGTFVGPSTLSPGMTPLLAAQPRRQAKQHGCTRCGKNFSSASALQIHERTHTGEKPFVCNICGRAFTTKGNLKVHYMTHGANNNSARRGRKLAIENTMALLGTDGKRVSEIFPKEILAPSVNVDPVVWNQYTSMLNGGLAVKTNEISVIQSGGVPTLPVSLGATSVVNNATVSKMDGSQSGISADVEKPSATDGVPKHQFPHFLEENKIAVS
Technique: universal PBM
Molecule type: double-stranded DNA, one strand shown
Matrix: in vitro
Concentration: 600 nM
Notes: 8-mer, flanks averaged, mean of replicates
Direction: higher = stronger binding
Endpoint: E-score
Sequence = CGGTTTCC; result = -0.25
Sequence = AATCAGTC; result = 0.00601
Sequence = ATTTGCAA; result = 0.234
Sequence = GATCACTA; result = -0.0103
Sequence = AAGAAGAT; result = 0.193
Sequence = ATCAGTTG; result = 0.105
Sequence = AAGGTAGC; result = -0.183
Sequence = CCGTAATC; result = -0.101
Sequence = ATTTCTAA; result = 0.175
Sequence = ATCGGAGA; result = -0.0745
Sequence = ACCGCTTC; result = -0.213
Sequence = AAGAGACA; result = 0.0974
Sequence = GAGAAGGA; result = -0.0218
Sequence = TACCTGCA; result = -0.0739
Sequence = CATCACTC; result = -0.187
Sequence = GGATATAC; result = 0.138
Sequence = AGAGTACT; result = 0.0799
Sequence = AGTCACAC; result = -0.0197
Sequence = CCCTATTA; result = 0.203
Sequence = ATACGCTG; result = -0.0372
Sequence = GCTTGCGA; result = 0.0608
Sequence = AGGACGGA; result = -0.173
Sequence = GAAAACCA; result = 0.0359
Sequence = CCCCATTC; result = -0.179
Sequence = GTACACGA; result = -0.00211

Other studies, line by line
Substance = PhoQ, residues 284 288 289 292 302 303 DDMDFR; target = PhoP, residues 12 14 15 18 19 GHCSL (Escherichia coli, UniProt P23836); test = Sort-seq, measured: YFP reporter; system = E. coli; conditions = PhoQ-PhoP variant library, with: 10 µM Mg2+; scale = baseline: high Mg2+ state, higher = stronger signaling; endpoint = fold induction; result = 0.764
